Published values of several laboratories.
Protocols differ between the studies behind these lines. ± marks the error that the study gave.

`COc1ccsc1CNCC[C@@]1(c2ccccn2)CCOC2(CCCC2)C1` has a clearance of 922 mL/min (healthy human, normal renal function, plasma; intravenous, 1 mg single dose, geometric mean).
For `CCCCCCCCCCC(=O)O[C@H]1CC[C@H]2[C@@H]3CCC4=CC(=O)CC[C@]4(C)[C@H]3CC[C@]12C`, the testosterone change was -1% (human blood; 300 ng/mL, 30 min, 4 °C, NaF 5 mg/mL, K2 oxalate 4 mg/mL; reference: no compound added).
With `N[C@@]1(c2ccccc2Cl)CCC[C@@H](O)C1=O` the Cmax was 24700 ng/mL (female CD-1 mice, plasma; intravenous, 50 mg/kg, 10 min, first sampling, not true peak).
`COc1nc2ccc(Br)cc2cc1[C@@H](c1ccccc1)[C@@](O)(CCN(C)C)c1cccc2ccccc12` gave a t1/2 of 116 h (mouse, C3HeB/FeJ, plasma; oral, 25 mg/kg, 72 to 168 h terminal).
`COc1cccc(C2(O)CCCCC2CN(C)C)c1` (stereo not drawn) gave an EC20 of greater than 800 µM (mitochondrial swelling; BALB/cByJ female mouse liver mitochondria; 30 min, with: succinate + rotenone; reference: CaCl2 maximal swelling).
`Cc1ncc2n1-c1ccc(Cl)cc1C(c1ccccc1F)=NC2` gave an AUC(0-last) of 0.197 µM·h (healthy human volunteers, plasma; oral, 5 mg single dose, geometric mean, with: water).
`C=C1C[C@@H]2[C@H](CC[C@]3(C)C(=O)CC[C@@H]23)[C@@]2(C)C=CC(=O)C=C12`: “median plasma concentration” 10.7 ng/mL (LC-MS/MS; postmenopausal breast cancer women, plasma; oral, 25 mg/day, 2 h, CYP3A4*22 heterozygous).
`Cc1ncc2n1-c1ccc(Cl)cc1C(c1ccccc1F)=NC2` gave a Tmax of 1.5 h (human CYP3A5*3/*7, serum; oral, with: ketoconazole 200 mg).
For `COc1ccc2c(c1)[C@]13CCCC[C@@H]1[C@H](C2)N(C)CC3`, pharmacokinetics read “no effect” (refers to: MDA; rat, plasma; intraperitoneal, 30 mg/kg, three doses, with: MDMA 20 mg/kg oral; reference: MDMA with saline).
For `CN1CC[C@@]23CCCC[C@@H]2[C@@H]1Cc1ccc(O)cc13`, the Tmax was 0.46 ± 0.1 h (Wistar rat, both sexes, plasma; oral, 5 mg/kg DEM, DEM 2 h after pretreatment, with: QN 2.5 mg/kg single pretreatment).
`C[C@H]1CNCCc2ccc(Cl)cc21` has an AUC(0-inf) of 63.7 ng·h/mL (male Sprague-Dawley rat, plasma; subcutaneous, 1 mg/kg, single dose).
The Papp of `CC(C)C[C@@H]1NC(=O)CN(C)C(=O)[C@H](Cc2ccccc2)NCc2cc(c[nH]2)CNC1=O` is reported as 0.178 ×10⁻⁶ cm/s (PAMPA; 100 µM, 17 h, pH 6.4).
`Cc1ncc2n1-c1ccc(Cl)cc1C(c1ccccc1F)=NC2`: “Cmax LS mean” 34 ng/mL (healthy men, plasma; oral, 7.5 mg, without amenamevir).
`C[C@@H]1N=C(c2ccccc2F)c2cc(Br)ccc2NC1=O` has a concentration of 618 nM (male Wistar rat, plasma; intraperitoneal, 2 mg/kg, 1 h).
Under “time of micromolar brain level”, `COc1ccc2[nH]cc(CCN(C)C)c2c1` is recorded as no less than 60 min (LC-MS/MS; rat, whole brain; subcutaneous, 1 mg/kg, with: clorgyline).
For `COc1ccc2c(c1)[C@]13CCCC[C@@H]1[C@H](C2)N(C)CC3`, the AUC(0-t) was 226 ± 61.3 ng·h/mL (Wistar rat, both sexes, plasma; oral, 5 mg/kg, 2 h after pretreatment, with: single TCE 100 mg/kg).
The half-life of `C[C@]12CC[C@H]3[C@@H](CCC4=CC(=O)CC[C@@]43C)[C@@H]1CC[C@@H]2O` is reported as 0.5 h (beagle dog, male, liver microsomes; 10 µM, pH 7.4, with: NADPH).
With `CN1C(=O)CC(=O)N(c2ccccc2)c2cc(Cl)ccc21` the half-life was 2.26 h (CF-1 mouse, brain; intraperitoneal, 7 mg/kg).

A few entries again:
For `COc1ccc2c(c1)[C@]13CCCC[C@@H]1[C@H](C2)N(C)CC3`, pharmacokinetics read “no effect” (refers to: MDA; rat, plasma; intraperitoneal, 30 mg/kg, three doses, with: MDMA 20 mg/kg oral; reference: MDMA with saline).
`COc1cccc(C2(O)CCCCC2CN(C)C)c1` (stereo not drawn) gave an EC20 of greater than 800 µM (mitochondrial swelling; BALB/cByJ female mouse liver mitochondria; 30 min, with: succinate + rotenone; reference: CaCl2 maximal swelling).
